Results of several laboratories.
Each numbered part is a random draw from the data of one study; scales do not carry over between parts.

Series 1 — method: protein-binding microarray; molecule type: double-stranded DNA, one strand shown; sample: in vitro; tested at: 940 nM top; notes: 60-bp whole probe; together with: salmon DNA 0.4 mg/ml; reference: random background probes; direction: higher = stronger binding; shared flanks, not repeated: GCCTAGCAC … GTCTTGATTCGCTTGACGCTGCTG
Target: Interferon regulatory factor 5, full length, phosphomimetic (IRF5, Homo sapiens, UniProt Q13568-2, residues 1-514, S451D/S453D/S456D/S462D)
| Oligonucleotide | fitted relative affinity [z-score] |
| --- | --- |
| CTAGGTTTCGGGTTTCGGTTAGTGCTA | 10.4 |
| CACGATCTCAGTATCGAGACGTGCTAG | 1.95 |
| TCAAAATTATCTTTAATACTGTGCTAG | 0.351 |
| GACGGTTTCCTTCTCCCGACGTGCTAG | 2.6 |
| GACGATCTCAATTTCGAGACGTGCTAG | 0.548 |

Series 2 — method: protein-binding microarray; molecule type: double-stranded DNA, one strand shown; sample: in vitro; tested at: not given; direction: higher = stronger binding
Target: Hepatocyte nuclear factor 3-beta, forkhead domain (FOXA2, Homo sapiens, UniProt Q9Y261, residues 142-269)
Notes: k-mer, scored over probes, only values ≥0.25
Residues (chain): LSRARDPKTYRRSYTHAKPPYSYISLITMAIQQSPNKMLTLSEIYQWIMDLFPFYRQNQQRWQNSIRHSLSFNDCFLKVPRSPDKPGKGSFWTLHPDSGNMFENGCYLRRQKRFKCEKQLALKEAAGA
| Oligonucleotide | E-score |
| --- | --- |
| AATTATTA | 0.292 |
| ATTATTAC | 0.272 |
| ATAATAAC | 0.264 |
| AGACATAT | 0.289 |
| TAATAGTA | 0.288 |

Series 3 — method: protein-binding microarray; molecule type: double-stranded DNA, one strand shown; sample: in vitro; tested at: 0.8 µM; notes: whole 60-bp probe, no competitor; direction: higher = stronger binding
Target: Centromere-binding protein 1, full length, N-terminal tag (CBF1, Saccharomyces cerevisiae, UniProt P17106, residues 1-351)
Sequence of UniProt P17106 (whole entry, looked up): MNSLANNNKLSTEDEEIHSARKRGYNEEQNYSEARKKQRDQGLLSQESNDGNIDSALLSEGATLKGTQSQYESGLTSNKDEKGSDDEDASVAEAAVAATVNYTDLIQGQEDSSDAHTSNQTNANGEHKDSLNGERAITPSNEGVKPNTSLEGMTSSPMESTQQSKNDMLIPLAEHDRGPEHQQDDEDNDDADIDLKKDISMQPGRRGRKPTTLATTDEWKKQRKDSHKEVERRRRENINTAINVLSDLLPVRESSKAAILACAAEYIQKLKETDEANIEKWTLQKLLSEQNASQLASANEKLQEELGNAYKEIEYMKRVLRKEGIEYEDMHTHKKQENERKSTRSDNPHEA
| Oligonucleotide | fluorescence intensity [a.u.] |
| --- | --- |
| GAACATTTACTTGTCCTCCTGATTTGTTAATACTAGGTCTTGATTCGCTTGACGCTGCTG | 735 |
| GAAGTAAGATAACTACATCTGATGTCATAGATTTAGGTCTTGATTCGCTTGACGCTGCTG | 514 |
| GAATCCTGCGACCGTGATGATACCGAAAGTATGTAGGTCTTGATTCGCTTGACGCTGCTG | 592 |
| CTAGTACATCTAATTTACGTGACCTAGACGTTGTTCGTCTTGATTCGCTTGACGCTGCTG | 703 |
| CTATTTTCCCATTGTCACGAGAACATAATTGTTTTCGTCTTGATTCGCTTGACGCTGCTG | 1870 |
| GAAGACATTACTATGATCATGATTTACGATGACTAGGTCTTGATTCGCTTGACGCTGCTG | 551 |

Single results of other studies
| Molecule | target | test | test system | conditions | scale | measurement | result |
| --- | --- | --- | --- | --- | --- | --- | --- |
| PhoQ, residues 284 288 289 292 302 303 SLCLSL | PhoP, residues 12 14 15 18 19 IQSYL (Escherichia coli, UniProt P23836) | Sort-seq, refers to: YFP reporter | E. coli | PhoQ-PhoP variant library, together with: 10 µM Mg2+ | reference: high Mg2+ state, higher = stronger signaling | fold induction | 37 |

Excerpt of the above (series 3):
| Oligonucleotide | fluorescence intensity [a.u.] |
| --- | --- |
| GAAGTAAGATAACTACATCTGATGTCATAGATTTAGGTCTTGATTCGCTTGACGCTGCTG | 514 |
